Measured values from different studies.
“And” joins repeats or separate records; there may be more than shown.

Under “log2 fold change”, Cn1cc(-c2ccc(-c3cncc(Cl)c3N3CCC4(CCNC4=O)CC3)cc2)cn1 is recorded as -2.15 (COLO 205; gene expression, microarray, refers to: ITGB1BP2 mRNA; concentration not given, 6 h; reference: untreated cells).
Under “change from baseline”, NC(=O)c1cnc2[nH]ccc2c1N[C@@H]1[C@@H]2CC3C[C@H]1C[C@@](O)(C3)C2 is recorded as -0.37% (flow cytometry, refers to: memory T cells (CD3+ CD45RA-); Japanese healthy subjects, peripheral blood; oral, 30 mg twice daily, day 4).
For Oc1ccccc1-c1n[nH]cc1-c1ccnc2ccccc12, “log2 fold change” read 0.1 (CKA1 (Candida albicans); kinase binding, MIB/MS competition; Candida albicans lysate; 1 µM; reference: DMSO).
N#Cc1ccc2c(c1)[C@H]1CCCN(C(=O)c3ccc4[nH]cnc4c3)[C@H]1C2 has a plasma level of 11.3 pmol/L (refers to: ACTH; human, Phase II trial; oral, 240 mg once daily, last treatment, HPA axis, mean).
For CCn1c(=O)c(-c2cc[nH]n2)cc2c(C)nc(N)nc21, “white pulp integrity score” read 0 (enterovirus A71; suckling mouse, EV71-infected, spleen; 0.25 mg/kg; direction not given).
N#Cc1ccc2c(-c3ccncc3)c(-c3ccc(F)cc3)nn2c1 — result for “log2 fold change”: 0.453 (kinase binding, competitor, MIB/MS competition, refers to: HSL1; Candida albicans cell lysate; 100 nM; reference: DMSO).
CC(C)n1ncc2c(C(=O)NCC3(C)CNC3)cc(C3CC3)nc21 gave a plaque area of 101% and 95.9% (enterovirus A71; Tainan/4643/1998; 0.01 µM).
The sarcomere length of O=C(O)CNC(=O)Cc1ccccc1 is reported as 1.72 µm (ventricular cardiomyocytes, C57BL/6 mouse; dose not given, 0.376 s).

Some of these lines once more:
For CCn1c(=O)c(-c2cc[nH]n2)cc2c(C)nc(N)nc21, “white pulp integrity score” read 0 (enterovirus A71; suckling mouse, EV71-infected, spleen; 0.25 mg/kg; direction not given).
